Published values pooled from the literature.
A part holds a random share of what one study measured.
Sequence of UniProt Q09013 (whole entry, looked up): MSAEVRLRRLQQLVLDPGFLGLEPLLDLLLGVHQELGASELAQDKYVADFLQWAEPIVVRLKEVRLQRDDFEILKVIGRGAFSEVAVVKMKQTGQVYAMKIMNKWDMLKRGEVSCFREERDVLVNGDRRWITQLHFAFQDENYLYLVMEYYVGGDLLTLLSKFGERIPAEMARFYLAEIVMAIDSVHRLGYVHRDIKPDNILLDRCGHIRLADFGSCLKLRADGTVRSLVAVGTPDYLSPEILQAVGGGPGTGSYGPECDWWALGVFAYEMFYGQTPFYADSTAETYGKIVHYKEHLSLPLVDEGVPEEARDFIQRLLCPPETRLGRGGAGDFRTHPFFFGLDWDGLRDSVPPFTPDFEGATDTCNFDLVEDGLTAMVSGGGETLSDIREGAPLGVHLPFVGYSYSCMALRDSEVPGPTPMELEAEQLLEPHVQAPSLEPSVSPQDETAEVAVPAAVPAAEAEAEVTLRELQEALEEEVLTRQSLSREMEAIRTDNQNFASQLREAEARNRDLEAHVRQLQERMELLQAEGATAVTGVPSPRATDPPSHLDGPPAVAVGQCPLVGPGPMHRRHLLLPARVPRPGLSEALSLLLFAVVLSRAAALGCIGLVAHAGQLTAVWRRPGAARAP
Sequence of UniProt Q16659 (whole entry, looked up): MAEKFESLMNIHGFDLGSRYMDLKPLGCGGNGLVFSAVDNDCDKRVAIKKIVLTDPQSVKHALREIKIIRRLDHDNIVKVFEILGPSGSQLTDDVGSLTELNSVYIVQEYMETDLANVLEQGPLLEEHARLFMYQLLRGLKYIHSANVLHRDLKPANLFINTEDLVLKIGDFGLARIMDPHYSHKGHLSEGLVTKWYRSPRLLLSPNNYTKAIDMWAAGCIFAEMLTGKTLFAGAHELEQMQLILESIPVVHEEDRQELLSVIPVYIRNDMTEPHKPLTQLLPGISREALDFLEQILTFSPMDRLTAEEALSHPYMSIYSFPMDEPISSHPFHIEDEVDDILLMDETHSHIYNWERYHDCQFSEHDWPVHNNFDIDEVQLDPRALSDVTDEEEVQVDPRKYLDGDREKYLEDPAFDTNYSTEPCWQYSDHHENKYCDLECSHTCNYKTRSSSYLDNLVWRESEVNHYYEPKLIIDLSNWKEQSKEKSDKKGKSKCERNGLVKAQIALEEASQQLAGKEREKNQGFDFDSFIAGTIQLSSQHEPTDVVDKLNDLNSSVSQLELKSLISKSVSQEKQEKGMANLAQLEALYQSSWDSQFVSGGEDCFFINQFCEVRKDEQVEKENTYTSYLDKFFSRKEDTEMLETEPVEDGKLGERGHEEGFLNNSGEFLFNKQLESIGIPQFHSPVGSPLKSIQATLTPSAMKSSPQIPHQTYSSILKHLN
Sequence of UniProt O00329 (whole entry, looked up): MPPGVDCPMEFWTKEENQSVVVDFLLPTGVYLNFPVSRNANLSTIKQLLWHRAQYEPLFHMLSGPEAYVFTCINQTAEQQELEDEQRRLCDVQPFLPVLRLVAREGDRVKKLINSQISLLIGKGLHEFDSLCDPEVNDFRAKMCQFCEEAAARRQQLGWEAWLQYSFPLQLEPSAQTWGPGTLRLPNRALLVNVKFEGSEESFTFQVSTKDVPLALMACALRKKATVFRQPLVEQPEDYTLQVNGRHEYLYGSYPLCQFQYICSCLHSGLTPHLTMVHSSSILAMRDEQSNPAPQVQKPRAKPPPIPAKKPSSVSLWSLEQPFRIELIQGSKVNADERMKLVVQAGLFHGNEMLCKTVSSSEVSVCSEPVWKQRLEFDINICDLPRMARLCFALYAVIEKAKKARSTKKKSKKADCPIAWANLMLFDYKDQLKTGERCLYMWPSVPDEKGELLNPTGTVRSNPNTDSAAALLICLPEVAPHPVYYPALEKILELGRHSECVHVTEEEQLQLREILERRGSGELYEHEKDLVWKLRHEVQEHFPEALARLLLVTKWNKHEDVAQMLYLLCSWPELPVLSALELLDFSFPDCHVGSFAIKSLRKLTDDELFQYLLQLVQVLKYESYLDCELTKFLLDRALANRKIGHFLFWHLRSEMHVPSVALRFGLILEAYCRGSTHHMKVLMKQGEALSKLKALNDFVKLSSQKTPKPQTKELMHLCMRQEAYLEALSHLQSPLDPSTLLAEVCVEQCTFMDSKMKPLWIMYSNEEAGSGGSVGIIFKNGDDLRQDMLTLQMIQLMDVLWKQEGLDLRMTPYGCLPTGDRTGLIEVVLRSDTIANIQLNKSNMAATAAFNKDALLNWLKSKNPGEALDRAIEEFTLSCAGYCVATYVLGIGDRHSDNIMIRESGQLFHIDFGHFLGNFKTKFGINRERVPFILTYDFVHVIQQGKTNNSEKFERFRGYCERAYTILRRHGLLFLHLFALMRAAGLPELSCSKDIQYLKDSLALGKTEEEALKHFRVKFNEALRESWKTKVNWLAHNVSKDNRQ
Sequence of UniProt P51685 (whole entry, looked up): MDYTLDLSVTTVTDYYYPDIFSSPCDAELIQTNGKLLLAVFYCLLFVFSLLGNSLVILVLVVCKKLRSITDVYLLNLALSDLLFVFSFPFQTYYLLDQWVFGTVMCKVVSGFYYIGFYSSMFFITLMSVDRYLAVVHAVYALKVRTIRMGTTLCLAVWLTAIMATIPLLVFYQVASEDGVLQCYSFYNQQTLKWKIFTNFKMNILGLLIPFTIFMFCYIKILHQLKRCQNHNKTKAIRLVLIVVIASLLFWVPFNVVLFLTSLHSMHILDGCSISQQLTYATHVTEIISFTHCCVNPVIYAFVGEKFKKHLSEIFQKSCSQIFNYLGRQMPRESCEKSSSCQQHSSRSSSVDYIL
Sequence of UniProt Q6P2M8 (whole entry, looked up): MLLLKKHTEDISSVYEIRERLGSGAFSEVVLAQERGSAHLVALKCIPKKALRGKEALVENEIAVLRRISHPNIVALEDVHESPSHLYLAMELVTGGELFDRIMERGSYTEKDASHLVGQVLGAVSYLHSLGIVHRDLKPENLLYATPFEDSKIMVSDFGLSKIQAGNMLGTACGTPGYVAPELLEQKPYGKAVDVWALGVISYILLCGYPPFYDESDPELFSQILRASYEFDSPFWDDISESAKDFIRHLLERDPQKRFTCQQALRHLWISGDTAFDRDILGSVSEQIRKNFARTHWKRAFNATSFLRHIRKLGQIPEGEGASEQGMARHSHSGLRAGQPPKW
Sequence of UniProt Q9H422 (whole entry, looked up): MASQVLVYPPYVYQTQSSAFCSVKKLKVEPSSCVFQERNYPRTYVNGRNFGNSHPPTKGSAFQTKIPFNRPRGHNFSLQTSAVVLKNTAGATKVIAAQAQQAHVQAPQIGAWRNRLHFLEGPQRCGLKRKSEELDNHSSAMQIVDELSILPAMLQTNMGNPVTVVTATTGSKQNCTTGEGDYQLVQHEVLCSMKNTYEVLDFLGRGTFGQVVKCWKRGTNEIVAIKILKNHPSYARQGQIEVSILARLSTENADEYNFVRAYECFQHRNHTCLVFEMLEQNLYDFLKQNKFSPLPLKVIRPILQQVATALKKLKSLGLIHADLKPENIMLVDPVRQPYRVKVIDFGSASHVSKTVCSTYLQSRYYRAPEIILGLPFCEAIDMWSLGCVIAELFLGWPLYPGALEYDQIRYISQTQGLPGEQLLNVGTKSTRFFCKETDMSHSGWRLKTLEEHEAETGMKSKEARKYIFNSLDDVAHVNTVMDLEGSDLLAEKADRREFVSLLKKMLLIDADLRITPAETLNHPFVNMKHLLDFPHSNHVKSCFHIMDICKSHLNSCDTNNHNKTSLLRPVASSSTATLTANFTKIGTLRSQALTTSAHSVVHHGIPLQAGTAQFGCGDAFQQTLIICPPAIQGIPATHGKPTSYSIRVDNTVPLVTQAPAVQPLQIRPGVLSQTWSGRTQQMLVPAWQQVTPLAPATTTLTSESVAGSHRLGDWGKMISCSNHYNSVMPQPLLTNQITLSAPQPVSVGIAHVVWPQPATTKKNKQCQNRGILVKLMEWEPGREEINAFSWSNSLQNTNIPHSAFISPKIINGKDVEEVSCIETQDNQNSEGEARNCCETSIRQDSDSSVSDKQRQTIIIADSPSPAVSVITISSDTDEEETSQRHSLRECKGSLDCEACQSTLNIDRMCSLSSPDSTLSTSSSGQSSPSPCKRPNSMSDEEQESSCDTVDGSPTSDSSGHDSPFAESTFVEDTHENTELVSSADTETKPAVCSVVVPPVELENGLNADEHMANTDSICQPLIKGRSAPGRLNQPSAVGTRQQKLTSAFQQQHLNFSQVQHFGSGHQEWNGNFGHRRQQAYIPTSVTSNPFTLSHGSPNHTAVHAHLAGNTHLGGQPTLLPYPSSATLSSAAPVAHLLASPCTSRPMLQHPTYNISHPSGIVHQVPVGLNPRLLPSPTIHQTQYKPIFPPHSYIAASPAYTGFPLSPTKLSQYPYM

Study 1
Compound: N=C(N)NC(=O)c1cnn(-c2cccc3ncccc23)c1C1CC1
Mode: agonist
Tested at: 10 µM
Relative to: untreated
The “fold over basal” was 1.08 (Metabotropic glycine receptor (GPR158, Homo sapiens, UniProt Q5T848); β-arrestin recruitment, PRESTO-Tango).
For GPR52 (Homo sapiens, UniProt Q9Y2T5); β-arrestin recruitment, PRESTO-Tango: “fold over basal” read 1.21.
It gave 1.23 for “fold over basal” (NPY5R (Homo sapiens, UniProt Q15761); PRESTO-Tango arrestin recruitment).
The “fold over basal” was 0.99 fold (GRM5 (Homo sapiens, UniProt P41594); β-arrestin recruitment, PRESTO-Tango).
The “fold over basal” was 1.06 (GPR55 (Homo sapiens, UniProt Q9Y2T6); β-arrestin recruitment, PRESTO-Tango).
For Mas-related G-protein coupled receptor MRG (MAS1L, Homo sapiens, UniProt P35410); β-arrestin recruitment, PRESTO-Tango: “fold over basal” read 1.
For Probable G-protein coupled receptor 174 (Homo sapiens, UniProt Q9BXC1); β-arrestin recruitment, PRESTO-Tango: “fold over basal” read 1.03.
MCHR2 (Homo sapiens, UniProt Q969V1); β-arrestin recruitment, PRESTO-Tango — “fold over basal”: 1.01.
It gave 1.5 for “fold over basal” (HTR4 (Homo sapiens, UniProt Q13639); β-arrestin recruitment, PRESTO-Tango).
It gave 1.53 for “fold over basal” (LPAR2 (Homo sapiens, UniProt Q9HBW0); β-arrestin recruitment, PRESTO-Tango).
The “fold over basal” was 0.7 (CCR10 (Homo sapiens, UniProt P46092); β-arrestin recruitment, PRESTO-Tango).
It gave 1 for “fold over basal” (CCR8 (Homo sapiens, UniProt P51685); β-arrestin recruitment, PRESTO-Tango).
It gave 0.99 for “fold over basal” (PTGDR2 (Homo sapiens, UniProt Q9Y5Y4); β-arrestin recruitment, PRESTO-Tango).
For G-protein coupled receptor 22 (GPR22, Homo sapiens, UniProt Q99680); β-arrestin recruitment, PRESTO-Tango: “fold over basal” read 0.85.
The “fold over basal” was 0.92 (Adhesion G protein-coupled receptor A2 (ADGRA2, Homo sapiens, UniProt Q96PE1); β-arrestin recruitment, PRESTO-Tango).
For ADRB1 (Homo sapiens, UniProt P08588); β-arrestin recruitment, PRESTO-Tango: “fold over basal” read 1.26.
The “fold over basal” was 1.15 (CCR5 (Homo sapiens, UniProt P51681); β-arrestin recruitment, PRESTO-Tango).
For PTGER1 (Homo sapiens, UniProt P34995); β-arrestin recruitment, PRESTO-Tango: “fold over basal” read 1.
Retinoic acid-induced protein 3 (GPRC5A, Homo sapiens, UniProt Q8NFJ5); β-arrestin recruitment, PRESTO-Tango — “fold over basal”: 1.08.

Study 2
SMILES: Nc1nc(Nc2ccc(S(N)(=O)=O)cc2)nn1C(=O)c1c(F)cccc1F
Observed: enzyme activity
Mode: inhibitor
Tested at: 0.5 µM
Relative to: control
The remaining activity was 19.1% (SLK (Homo sapiens, UniProt Q9H2G2)).
It gave 97% for remaining activity (EGFR (Homo sapiens, UniProt P00533)).
For MAPK10 (Homo sapiens, UniProt P53779): remaining activity read 100%.
The remaining activity was 93.2% (DMPK (Homo sapiens, UniProt Q09013)).
The remaining activity was 66.5% (PRKD1 (Homo sapiens, UniProt Q15139)).
For MAP3K2 (Homo sapiens, UniProt Q9Y2U5): remaining activity read 11.3%.
It gave 105% for remaining activity (DYRK4 (Homo sapiens, UniProt Q9NR20)).
It gave 81.1% for remaining activity (CDK7 (Homo sapiens, UniProt P50613)).
GRK5 (Homo sapiens, UniProt P34947) — remaining activity: 85.9%.
Cyclin-dependent kinase 2, with cyclin A (CDK2, Homo sapiens, UniProt P24941) — remaining activity: 2.21%.
It gave 39.5% for remaining activity (ROS1 (Homo sapiens, UniProt P08922)).
The remaining activity was 97.5% (CSNK2A2 (Homo sapiens, UniProt P19784)).
It gave 82.2% for remaining activity (NEK9 (Homo sapiens, UniProt Q8TD19)).
For MAP3K8 (Homo sapiens, UniProt P41279): remaining activity read 94.4%.
NTRK3 (Homo sapiens, UniProt Q16288) — remaining activity: 37.6%.
HIPK3 (Homo sapiens, UniProt Q9H422) — remaining activity: 91.2%.
CAMK1G (Homo sapiens, UniProt Q96NX5) — remaining activity: 101%.
For PKN2 (Homo sapiens, UniProt Q16513): remaining activity read 85.6%.
RET (Homo sapiens, UniProt P07949) — remaining activity: 54.1%.

Study 3
Structure (SMILES): Cc1cc(C)c(-n2ccn3nc(-c4cccnc4)cc23)cc1NC(=O)c1cc(C#N)cc(S(F)(F)(F)(F)F)c1
Observed: cell-free assay
Technique: competition with immobilised ligand
Tested at: 0.1 µM
For FLT3 (Homo sapiens, UniProt P36888, D835V): remaining binding read 85.2%.
For ULK1 (Homo sapiens, UniProt O75385): remaining binding read 100%.
For MAPK6 (Homo sapiens, UniProt Q16659): remaining binding read 85.8%.
For STK38 (Homo sapiens, UniProt Q15208): remaining binding read 80.4%.
It gave 89% for remaining binding (CAMKK2 (Homo sapiens, UniProt Q96RR4)).
The remaining binding was 95.6% (DMPK (Homo sapiens, UniProt Q09013)).
Aurora kinase C (AURKC, Homo sapiens, UniProt Q9UQB9) — remaining binding: 100%.
It gave 100% for remaining binding (ULK2 (Homo sapiens, UniProt Q8IYT8)).
The remaining binding was 93.1% (Tyrosine-protein kinase JAK1, JH2 (JAK1, Homo sapiens, UniProt P23458)).
The remaining binding was 100% (SRPK3 (Homo sapiens, UniProt Q9UPE1)).
PRKAA2 (Homo sapiens, UniProt P54646) — remaining binding: 82.7%.
PRKACA (Homo sapiens, UniProt P17612) — remaining binding: 95.6%.
The remaining binding was 100% (Ribosomal protein S6 kinase alpha-5, C-terminal kinase domain (RPS6KA5, Homo sapiens, UniProt O75582)).
It gave 96.2% for remaining binding (ERBB3 (Homo sapiens, UniProt P21860)).
The remaining binding was 83.6% (PNCK (Homo sapiens, UniProt Q6P2M8)).
It gave 100% for remaining binding (PRKCI (Homo sapiens, UniProt P41743)).
NEK4 (Homo sapiens, UniProt P51957) — remaining binding: 90.2%.
The remaining binding was 70.8% (MAP2K7 (Homo sapiens, UniProt O14733)).
It gave 87.5% for remaining binding (CAMK2B (Homo sapiens, UniProt Q13554)).
The remaining binding was 91.4% (STK17B (Homo sapiens, UniProt O94768)).
The remaining binding was 69.9% (CIT (Homo sapiens, UniProt O14578)).
It gave 76.9% for remaining binding (PIK3CD (Homo sapiens, UniProt O00329)).
The remaining binding was 100% (PTK2 (Homo sapiens, UniProt Q05397)).
It gave 100% for remaining binding (STK32A (Homo sapiens, UniProt Q8WU08)).

Study 4
Target: Calcium/calmodulin-dependent protein kinase type II subunit alpha (CAMK2A, Homo sapiens, UniProt Q9UQM7)
Sequence of UniProt Q9UQM7 (whole entry, looked up): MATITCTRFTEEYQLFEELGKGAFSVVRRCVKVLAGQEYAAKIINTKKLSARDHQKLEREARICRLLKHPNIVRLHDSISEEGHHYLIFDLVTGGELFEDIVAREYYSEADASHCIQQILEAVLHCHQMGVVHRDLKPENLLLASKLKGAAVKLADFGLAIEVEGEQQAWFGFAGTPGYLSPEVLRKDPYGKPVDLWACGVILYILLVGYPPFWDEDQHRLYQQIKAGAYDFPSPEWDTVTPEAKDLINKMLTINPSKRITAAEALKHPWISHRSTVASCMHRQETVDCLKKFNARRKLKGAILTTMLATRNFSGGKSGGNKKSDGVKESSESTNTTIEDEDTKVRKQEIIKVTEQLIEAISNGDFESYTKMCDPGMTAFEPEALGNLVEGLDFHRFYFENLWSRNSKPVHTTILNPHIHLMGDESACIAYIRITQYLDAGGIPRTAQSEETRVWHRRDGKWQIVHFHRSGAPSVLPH
Observed: enzyme activity
Mode: inhibitor
Tested at: 10 µM
The inhibition of Cc1cccc(Nc2ccncc2S(=O)(=O)NC(=O)NC(C)C)c1 is reported as -3%.
CC(C)C[C@H](N)C(=O)O has an inhibition of 26%.
The inhibition of CC(C)=CCC[C@](C)(O[C@@H]1O[C@H](CO)[C@@H](O)[C@H](O)[C@H]1O)[C@H]1CC[C@]2(C)[C@@H]1[C@H](O)C[C@@H]1[C@@]3(C)CC[C@H](O)C(C)(C)[C@@H]3[C@@H](O)C[C@]12C is reported as -13%.
CC1=C(C)C(=O)C(C(CCCCCC(=O)O)c2ccccc2)=C(C)C1=O (stereo not drawn) has an inhibition of -12%.
The inhibition of NC1(C(=O)O)CC1 is reported as 14%.
COc1cc(/C=C/C=O)ccc1O has an inhibition of -25%.
For CC(C)=CCC/C(C)=C/Cc1c(O)c(CC=C(C)C)c2c(c1O)C(=O)C1=C[C@@H]3C[C@H]4C(C)(C)O[C@@](C/C=C(/C)C(=O)O)(C3=O)[C@@]14O2, the inhibition was -77%.
For CO[C@H]1O[C@H](COS(=O)(=O)O)[C@@H](O[C@@H]2O[C@@H](C(=O)O)[C@@H](O[C@H]3O[C@H](COS(=O)(=O)O)[C@@H](O[C@@H]4O[C@H](C(=O)O)[C@@H](O[C@H]5O[C@H](COS(=O)(=O)O)[C@@H](O)[C@H](O)[C@H]5NS(=O)(=O)O)[C@H](O)[C@H]4O)[C@H](OS(=O)(=O)O)[C@H]3NS(=O)(=O)O)[C@H](O)[C@H]2OS(=O)(=O)O)[C@H](O)[C@H]1NS(=O)(=O)O, the inhibition was -3%.
For NC[C@H]1CC[C@H](C(=O)O)CC1, the inhibition was -6%.
NS(=O)(=O)c1cc2c(cc1Cl)N=CNS2(=O)=O has an inhibition of -2%.
For Cc1ccc(-c2ncc(Cl)cc2-c2ccc(S(C)(=O)=O)cc2)cn1, the inhibition was 10%.
The inhibition of CC1(C)O[C@@H]2C[C@H]3[C@@H]4CCC5=CC(=O)C=C[C@]5(C)[C@@]4(F)[C@@H](O)C[C@]3(C)[C@]2(C(=O)CO)O1 is reported as -3%.
With CCCCC1C(=O)N(c2ccccc2)N(c2ccccc2)C1=O the inhibition was -6%.
CN(C)C(=O)COC(=O)Cc1ccc(OC(=O)c2ccc(NC(=N)N)cc2)cc1 has an inhibition of -3%.
CC(C)=CCC/C(C)=C/CC/C(C)=C/CC/C(C)=C/CO gave an inhibition of 8%.
For O=C(O)c1ccccc1OP(=O)(O)O, the inhibition was 1%.

A few entries again (study 1):
It gave 1.53 for “fold over basal” (LPAR2 (Homo sapiens, UniProt Q9HBW0); β-arrestin recruitment, PRESTO-Tango).
The “fold over basal” was 0.7 (CCR10 (Homo sapiens, UniProt P46092); β-arrestin recruitment, PRESTO-Tango).
It gave 1 for “fold over basal” (CCR8 (Homo sapiens, UniProt P51685); β-arrestin recruitment, PRESTO-Tango).
It gave 0.99 for “fold over basal” (PTGDR2 (Homo sapiens, UniProt Q9Y5Y4); β-arrestin recruitment, PRESTO-Tango).
For G-protein coupled receptor 22 (GPR22, Homo sapiens, UniProt Q99680); β-arrestin recruitment, PRESTO-Tango: “fold over basal” read 0.85.
The “fold over basal” was 0.92 (Adhesion G protein-coupled receptor A2 (ADGRA2, Homo sapiens, UniProt Q96PE1); β-arrestin recruitment, PRESTO-Tango).
For ADRB1 (Homo sapiens, UniProt P08588); β-arrestin recruitment, PRESTO-Tango: “fold over basal” read 1.26.
The “fold over basal” was 1.15 (CCR5 (Homo sapiens, UniProt P51681); β-arrestin recruitment, PRESTO-Tango).
For PTGER1 (Homo sapiens, UniProt P34995); β-arrestin recruitment, PRESTO-Tango: “fold over basal” read 1.
Retinoic acid-induced protein 3 (GPRC5A, Homo sapiens, UniProt Q8NFJ5); β-arrestin recruitment, PRESTO-Tango — “fold over basal”: 1.08.
